Measured values from different studies.
Lines come from different studies, so protocols differ.
CYP2C19: Cytochrome P450 2C19 (CYP2C19, Homo sapiens, UniProt P33261)
ABCB1: ATP-dependent translocase ABCB1 (ABCB1, Homo sapiens, UniProt P08183)
Sequence of UniProt P08183 (whole entry, looked up): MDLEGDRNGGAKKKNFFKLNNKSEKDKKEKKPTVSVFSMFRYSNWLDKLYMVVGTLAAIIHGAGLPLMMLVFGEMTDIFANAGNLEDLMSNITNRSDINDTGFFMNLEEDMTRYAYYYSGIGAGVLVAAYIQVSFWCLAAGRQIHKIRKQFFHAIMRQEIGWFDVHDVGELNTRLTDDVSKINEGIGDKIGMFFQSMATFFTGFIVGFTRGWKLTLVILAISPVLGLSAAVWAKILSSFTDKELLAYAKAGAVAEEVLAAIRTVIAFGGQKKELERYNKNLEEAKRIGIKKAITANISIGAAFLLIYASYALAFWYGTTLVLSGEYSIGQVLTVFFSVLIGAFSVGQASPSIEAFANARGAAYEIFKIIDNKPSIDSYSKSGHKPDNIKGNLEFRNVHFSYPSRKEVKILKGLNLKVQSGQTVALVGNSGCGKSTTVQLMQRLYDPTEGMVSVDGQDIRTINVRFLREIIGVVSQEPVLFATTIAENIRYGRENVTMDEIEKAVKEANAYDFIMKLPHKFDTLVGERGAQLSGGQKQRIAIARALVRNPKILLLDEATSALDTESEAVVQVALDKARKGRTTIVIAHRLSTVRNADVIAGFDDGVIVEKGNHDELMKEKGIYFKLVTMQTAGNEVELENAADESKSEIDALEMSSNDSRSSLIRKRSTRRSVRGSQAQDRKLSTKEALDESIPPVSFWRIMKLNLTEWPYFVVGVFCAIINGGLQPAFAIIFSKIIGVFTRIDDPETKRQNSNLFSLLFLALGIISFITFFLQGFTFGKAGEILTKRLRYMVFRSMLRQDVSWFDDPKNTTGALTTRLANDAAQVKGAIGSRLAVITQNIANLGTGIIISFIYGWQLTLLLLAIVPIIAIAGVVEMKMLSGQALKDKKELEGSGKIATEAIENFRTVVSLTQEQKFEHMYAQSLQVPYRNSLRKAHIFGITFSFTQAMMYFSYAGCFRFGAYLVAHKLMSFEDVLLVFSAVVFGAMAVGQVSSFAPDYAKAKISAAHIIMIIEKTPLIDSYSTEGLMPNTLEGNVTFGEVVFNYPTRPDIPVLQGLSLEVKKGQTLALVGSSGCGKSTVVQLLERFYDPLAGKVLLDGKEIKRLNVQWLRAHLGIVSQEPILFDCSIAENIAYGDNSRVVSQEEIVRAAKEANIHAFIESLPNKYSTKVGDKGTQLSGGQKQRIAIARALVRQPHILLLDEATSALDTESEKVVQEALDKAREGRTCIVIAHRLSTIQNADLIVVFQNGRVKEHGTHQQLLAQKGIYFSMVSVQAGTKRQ
DPP4: Dipeptidyl peptidase 4 (DPP4, Homo sapiens, UniProt P27487)
Sequence of UniProt P27487 (whole entry, looked up): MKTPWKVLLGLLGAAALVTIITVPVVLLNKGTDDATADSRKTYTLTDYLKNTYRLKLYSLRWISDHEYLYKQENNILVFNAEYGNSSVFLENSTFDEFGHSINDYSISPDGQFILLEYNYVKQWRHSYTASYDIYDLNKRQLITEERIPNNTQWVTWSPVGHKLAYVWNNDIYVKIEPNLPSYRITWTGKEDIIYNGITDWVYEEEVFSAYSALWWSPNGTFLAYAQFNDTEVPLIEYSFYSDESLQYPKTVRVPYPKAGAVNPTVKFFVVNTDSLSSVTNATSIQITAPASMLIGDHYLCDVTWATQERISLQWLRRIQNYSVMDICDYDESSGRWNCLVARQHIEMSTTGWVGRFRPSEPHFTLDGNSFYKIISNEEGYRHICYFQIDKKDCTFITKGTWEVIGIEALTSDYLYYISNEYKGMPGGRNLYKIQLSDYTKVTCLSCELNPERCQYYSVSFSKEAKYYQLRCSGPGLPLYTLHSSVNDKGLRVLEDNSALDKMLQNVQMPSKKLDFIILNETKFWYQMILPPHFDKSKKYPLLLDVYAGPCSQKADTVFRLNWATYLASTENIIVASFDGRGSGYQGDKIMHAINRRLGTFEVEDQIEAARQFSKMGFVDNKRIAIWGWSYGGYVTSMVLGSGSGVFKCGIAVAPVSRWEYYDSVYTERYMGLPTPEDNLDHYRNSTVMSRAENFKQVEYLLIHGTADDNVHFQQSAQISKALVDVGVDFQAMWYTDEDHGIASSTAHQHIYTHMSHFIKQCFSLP
Sequence of UniProt Q86VL8 (whole entry, looked up): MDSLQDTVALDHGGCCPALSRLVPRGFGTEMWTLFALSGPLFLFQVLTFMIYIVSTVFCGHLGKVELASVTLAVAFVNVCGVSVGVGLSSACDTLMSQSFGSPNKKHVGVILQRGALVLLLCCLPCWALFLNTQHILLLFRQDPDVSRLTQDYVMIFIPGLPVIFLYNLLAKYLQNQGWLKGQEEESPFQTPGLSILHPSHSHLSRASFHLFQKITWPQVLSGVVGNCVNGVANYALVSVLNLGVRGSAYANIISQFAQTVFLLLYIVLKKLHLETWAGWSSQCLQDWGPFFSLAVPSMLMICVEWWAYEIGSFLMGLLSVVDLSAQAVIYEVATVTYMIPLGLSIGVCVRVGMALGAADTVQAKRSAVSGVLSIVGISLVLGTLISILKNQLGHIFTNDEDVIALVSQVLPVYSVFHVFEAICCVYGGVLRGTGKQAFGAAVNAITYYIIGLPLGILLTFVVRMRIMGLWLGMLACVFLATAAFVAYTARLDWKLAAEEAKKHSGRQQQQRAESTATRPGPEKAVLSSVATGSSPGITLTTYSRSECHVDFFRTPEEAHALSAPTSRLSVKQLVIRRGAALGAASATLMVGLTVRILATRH
Sequence of UniProt P10632 (whole entry, looked up): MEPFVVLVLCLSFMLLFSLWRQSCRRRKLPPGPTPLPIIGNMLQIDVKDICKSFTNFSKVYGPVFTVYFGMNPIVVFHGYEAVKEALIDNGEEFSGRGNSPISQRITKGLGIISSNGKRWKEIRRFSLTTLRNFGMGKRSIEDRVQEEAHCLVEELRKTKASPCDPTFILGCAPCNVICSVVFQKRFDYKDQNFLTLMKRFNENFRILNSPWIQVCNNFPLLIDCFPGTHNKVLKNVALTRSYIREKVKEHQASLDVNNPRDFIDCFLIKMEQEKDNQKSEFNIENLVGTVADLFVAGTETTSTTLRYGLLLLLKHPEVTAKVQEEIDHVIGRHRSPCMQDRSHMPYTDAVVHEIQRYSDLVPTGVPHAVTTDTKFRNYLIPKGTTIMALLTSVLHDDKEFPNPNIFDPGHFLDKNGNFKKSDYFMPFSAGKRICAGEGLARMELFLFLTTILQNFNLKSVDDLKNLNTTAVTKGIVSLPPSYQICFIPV
Sequence of UniProt P11509 (whole entry, looked up): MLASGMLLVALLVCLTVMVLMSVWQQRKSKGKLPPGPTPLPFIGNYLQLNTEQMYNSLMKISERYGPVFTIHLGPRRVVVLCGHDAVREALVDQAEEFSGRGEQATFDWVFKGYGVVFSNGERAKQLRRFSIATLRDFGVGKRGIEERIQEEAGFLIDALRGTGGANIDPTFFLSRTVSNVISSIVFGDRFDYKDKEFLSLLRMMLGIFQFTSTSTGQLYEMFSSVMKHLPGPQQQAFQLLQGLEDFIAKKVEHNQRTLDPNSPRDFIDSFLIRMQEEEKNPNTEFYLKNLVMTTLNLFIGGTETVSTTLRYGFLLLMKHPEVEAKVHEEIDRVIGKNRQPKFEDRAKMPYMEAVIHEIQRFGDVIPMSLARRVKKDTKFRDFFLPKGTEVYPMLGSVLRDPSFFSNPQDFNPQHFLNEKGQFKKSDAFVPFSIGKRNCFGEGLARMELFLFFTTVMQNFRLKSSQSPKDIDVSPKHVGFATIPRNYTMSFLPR

SMILES = Cc1cc(-c2ccc3ccccc3c2)nnc1NCCN1CCN(C)CC1; target = Multidrug and toxin extrusion protein 2 (SLC47A2, Homo sapiens, UniProt Q86VL8); test = transporter uptake, inhibitor; conditions = 10 µM; quantity = inhibition; result = 62%
SMILES = CSCC[C@H](NC(=O)[C@@H](NC(=O)[C@H](CC(C)C)NC(=O)[C@@H](NC(=O)[C@H](Cc1c[nH]cn1)NC(=O)CCCCCNC(=O)C1CC2C=CC1C2)C(C)C)C(C)C)C(=O)N[C@@H](CO)C(=O)N[C@@H](C)C(=O)N[C@H](C(=O)NCC(=O)N[C@@H](CCC(=O)O)C(=O)N[C@@H](CCCNC(=N)N)C(=O)N[C@@H](CC(=O)O)C(=O)NCC(=O)N[C@@H](CO)C(N)=O)[C@@H](C)O (stereo partly drawn); target = pepsin; test = cleavage, substrate, HPLC; test system = aqueous HCl; conditions = 200 µM, 1.667 h, pH 2, 37 °C, with: pepsin 0.2 µM; quantity = percent cleaved; result = 65%
SMILES = CN[C@@H]1[C@H](O)[C@H](NC)[C@H]2O[C@]3(O)[C@H](O[C@@H]2[C@H]1O)O[C@H](C)C[C@H]3NC(=O)Cc1cc(Cl)ccn1; target = CYP2C19; conditions = 10 µM; quantity = inhibition; result = 6%
SMILES = C[C@@H](c1ccc2nccn2c1)n1nnc2ncc(-c3cn[nH]c3)nc21; target = Cytochrome P450 2A6 (CYP2A6, Homo sapiens, UniProt P11509); test = enzyme activity, reversible inhibitor; test system = human liver microsomes; quantity = IC50; result = > 30 µM
SMILES = CC(=O)NCCCC[C@@H]1NC(=O)[C@H](Cc2c[nH]c3c(C)cccc23)NC(=O)[C@H]([C@@H](C)O)NC(=O)[C@H](CC(N)=O)NC(=O)[C@@H](NC(C)=O)C(C)(C)SSC(C)(C)[C@@H](C(=O)N[C@@H](Cc2ccc(OCCN)cc2)C(=O)N[C@@H](Cc2ccc3ccccc3c2)C(=O)NC2(C(=O)N[C@@H](CCC(=O)O)C(=O)N[C@@H](CC(N)=O)C(=O)N[C@@H](Cc3cccnc3)C(=O)N(C)CC(N)=O)CCOCC2)NC1=O; target = ABCB1; test = transport, inhibitor; test system = LLC-PK1 expressing MDR1; conditions = 300 µM, 90 min, with: [3H]digoxin; quantity = efflux ratio; result = 15.5
SMILES = CC[C@H](C)[C@H](NC(=O)[C@H](Cc1ccccc1)NC(=O)[C@H](CCC(=O)O)NC(=O)[C@H](CCCCN)NC(=O)[C@H](C)NC(=O)[C@H](C)NC(=O)[C@H](CCC(N)=O)NC(=O)CNC(=O)[C@H](CCC(=O)O)NC(=O)[C@H](CC(C)C)NC(=O)[C@H](Cc1ccc(O)cc1)NC(=O)[C@H](CO)NC(=O)[C@H](CO)NC(=O)[C@@H](NC(=O)[C@H](CC(=O)O)NC(=O)[C@H](CO)NC(=O)[C@@H](NC(=O)[C@H](Cc1ccccc1)NC(=O)[C@@H](NC(=O)CNC(=O)[C@H](CCC(=O)O)NC(=O)[C@H](C)NC(=O)[C@@H](N)Cc1c[nH]cn1)[C@@H](C)O)[C@@H](C)O)C(C)C)C(=O)N[C@@H](C)C(=O)N[C@@H](Cc1c[nH]c2ccccc12)C(=O)N[C@@H](CC(C)C)C(=O)N[C@H](C(=O)N[C@@H](CCCCN)C(=O)NCC(=O)N[C@@H](CCCNC(=N)N)C(=O)NCC(=O)N[C@@H](Cc1ccccc1)C(=O)N[C@@H](Cc1ccccc1)C(=O)NCC(=O)O)C(C)C; target = DPP-4 (recombinant); test = substrate, LC-MS; conditions = 500 µM, 24 h; quantity = remaining peptide; result = ~85%
SMILES = CNC(=O)C1OC(n2cnc3c(NCc4cccc(I)c4)ncnc32)C(O)C1O (stereo not drawn); target = ABCB1; test = transport, inhibitor; conditions = 100 µM, 5 (unit not given), pH 7, with: NMN; quantity = inhibition; result = 66.5%
SMILES = CC[C@H](C)[C@H](NC(=O)[C@H](Cc1ccccc1)NC(=O)[C@H](CCC(=O)O)NC(=O)[C@H](CCCCN)NC(=O)[C@H](C)NC(=O)[C@H](C)NC(=O)[C@H](CCC(N)=O)NC(=O)CNC(=O)[C@H](CCC(=O)O)NC(=O)[C@H](CC(C)C)NC(=O)[C@H](Cc1ccc(O)cc1)NC(=O)[C@H](CO)NC(=O)[C@H](CO)NC(=O)[C@@H](NC(=O)[C@H](CC(=O)O)NC(=O)[C@H](CO)NC(=O)[C@@H](NC(=O)[C@H](Cc1ccccc1)NC(=O)[C@@H](NC(=O)CNC(=O)[C@H](CCC(=O)O)NC(=O)C(C)(C)NC(=O)N(N)Cc1c[nH]cn1)[C@@H](C)O)[C@@H](C)O)C(C)C)C(=O)N[C@@H](C)C(=O)N[C@@H](Cc1c[nH]c2ccccc12)C(=O)N[C@@H](CC(C)C)C(=O)N[C@H](C(=O)N[C@@H](CCCNC(=N)N)C(=O)NCC(=O)N[C@@H](CCCNC(=N)N)C(=O)NCC(=O)O)C(C)C; target = DPP4; test = HPLC-UV; test system = Tris-HCl; conditions = 0.1 mM, 1 h, pH 7.4, 37 °C, with: DPP4 16 nM; quantity = remaining peptide; result = 100%
SMILES = C[C@@H](c1ccc2nccn2c1)n1nnc2nc(O)c(-c3cnn(C)c3)nc21; target = Cytochrome P450 2C8 (CYP2C8, Homo sapiens, UniProt P10632); test = enzyme activity, inhibitor; test system = human, liver microsomes; quantity = IC50; result = 11 µM
SMILES = CCN(CC)CCOc1ccc(-c2nnn(Cc3ccc(OC)cc3)c2N)cc1; target = CYP2C19; test = inhibitor; quantity = IC50; result = > 50 µM
SMILES = CC[C@H](C)[C@H](NC(=O)[C@H](Cc1ccccc1)NC(=O)[C@H](CCC(=O)O)NC(=O)[C@H](CCCCN)NC(=O)[C@H](C)NC(=O)[C@H](C)NC(=O)[C@H](CCC(N)=O)NC(=O)CNC(=O)[C@H](CCC(=O)O)NC(=O)[C@H](CC(C)C)NC(=O)[C@H](Cc1ccc(O)cc1)NC(=O)[C@H](CO)NC(=O)[C@H](CO)NC(=O)[C@@H](NC(=O)[C@H](CC(=O)O)NC(=O)[C@H](CO)NC(=O)[C@@H](NC(=O)[C@H](Cc1ccccc1)NC(=O)[C@@H](NC(=O)CNC(=O)N(CCC(=O)O)NC(=O)[C@H](C)NC(=O)N(N)Cc1c[nH]cn1)[C@@H](C)O)[C@@H](C)O)C(C)C)C(=O)N[C@@H](C)C(=O)N[C@@H](Cc1c[nH]c2ccccc12)C(=O)N[C@@H](CC(C)C)C(=O)N[C@H](C(=O)N[C@@H](CCCNC(=N)N)C(=O)NCC(=O)N[C@@H](CCCNC(=N)N)C(=O)NCC(=O)O)C(C)C; target = DPP4; test = HPLC-UV; test system = Tris-HCl; conditions = 0.1 mM, 4 h, pH 7.4, 37 °C, with: DPP4 16 nM; quantity = remaining peptide; result = 100%
SMILES = CNC(=O)C1CCCN(C(=O)C2CC3CCC2N3C(=O)[C@@H]2C[C@@H](O)CN2C(=O)NCc2cccc(Cl)c2F)C1 (mixture of isomers); target = CYP3A4 (human); test = inhibitor, time-dependent inhibition; conditions = 5.56 µM, preincubated with NADPH, with: midazolam substrate; scale = reference: negative control; quantity = remaining activity; result = 104%

Some of these lines once more:
SMILES = CC[C@H](C)[C@H](NC(=O)[C@H](Cc1ccccc1)NC(=O)[C@H](CCC(=O)O)NC(=O)[C@H](CCCCN)NC(=O)[C@H](C)NC(=O)[C@H](C)NC(=O)[C@H](CCC(N)=O)NC(=O)CNC(=O)[C@H](CCC(=O)O)NC(=O)[C@H](CC(C)C)NC(=O)[C@H](Cc1ccc(O)cc1)NC(=O)[C@H](CO)NC(=O)[C@H](CO)NC(=O)[C@@H](NC(=O)[C@H](CC(=O)O)NC(=O)[C@H](CO)NC(=O)[C@@H](NC(=O)[C@H](Cc1ccccc1)NC(=O)[C@@H](NC(=O)CNC(=O)[C@H](CCC(=O)O)NC(=O)[C@H](C)NC(=O)[C@@H](N)Cc1c[nH]cn1)[C@@H](C)O)[C@@H](C)O)C(C)C)C(=O)N[C@@H](C)C(=O)N[C@@H](Cc1c[nH]c2ccccc12)C(=O)N[C@@H](CC(C)C)C(=O)N[C@H](C(=O)N[C@@H](CCCCN)C(=O)NCC(=O)N[C@@H](CCCNC(=N)N)C(=O)NCC(=O)N[C@@H](Cc1ccccc1)C(=O)N[C@@H](Cc1ccccc1)C(=O)NCC(=O)O)C(C)C; target = DPP-4 (recombinant); test = substrate, LC-MS; conditions = 500 µM, 24 h; quantity = remaining peptide; result = ~85%
